Measured values of several laboratories.
Every numbered part comes from another study and shows a few of its results, in no order.

Sample 1
Target: Ras GTPase-activating protein-binding protein 1, C-terminal RGG region (G3BP1, Homo sapiens, UniProt Q13283)
UniProt Q13283, sequence (whole entry, looked up): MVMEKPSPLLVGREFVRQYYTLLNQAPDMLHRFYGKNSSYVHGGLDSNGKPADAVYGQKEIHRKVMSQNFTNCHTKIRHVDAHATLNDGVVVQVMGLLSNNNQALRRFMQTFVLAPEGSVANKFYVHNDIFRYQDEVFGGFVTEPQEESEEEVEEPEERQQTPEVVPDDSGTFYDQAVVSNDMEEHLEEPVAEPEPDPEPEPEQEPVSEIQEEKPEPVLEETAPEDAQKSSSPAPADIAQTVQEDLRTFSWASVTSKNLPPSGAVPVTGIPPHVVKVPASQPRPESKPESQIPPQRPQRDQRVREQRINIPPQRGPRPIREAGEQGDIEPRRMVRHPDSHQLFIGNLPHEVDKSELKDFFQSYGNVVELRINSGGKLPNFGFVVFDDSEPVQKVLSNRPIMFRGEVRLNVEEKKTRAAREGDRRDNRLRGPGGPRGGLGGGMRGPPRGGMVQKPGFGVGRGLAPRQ
Technique: RNA Bind-n-Seq
Molecule type: RNA
Medium: in vitro
Tested at: 1 µM
Setting: whole 134-nt RNA, ends assumed
Added: 150 mM KCl
Reference: input library
Direction: higher = stronger binding
Constant ends, left off below: GGGAGUUCUACAGUCCGACGAUC … UGGAAUUCUCGGGUGUCAAGG
`UGGAAGUGGCGCUGGCGCCUGAAGAGUUGGAGCUGGAUCCUAUGGCCAUGACCCAGAAGUAUGAGGAGCAUGUGCGGGAGCAGCAGGCUC` gave a log2 enrichment of -0.254.
For `UCAAGUCCUGUGCUACACAUCGUAUGUACCGAAUCGGUGGUUUUUUUGGAAAGGAAAGUAUUAUGUUACGCCGUUCGGAUCUGCACUUCC`, the log2 enrichment was -1.29.
`UGGUCAUGGGAUGGAGAACCAGUUCUUCCCUUAUAUCUUCACCAUAUGACUAUUGACCCUGUCUUAGGCUGCUCCCAGGCCGUUCCAUUG` has a log2 enrichment of 0.692.
`CAAGUCCUGUGCUACACAUCGUAUGUACCGAAUCGGGGUUUGGGGUUUGGUUUGGGAAAGUAUUAUGUUACGCCGUUCGGAUCUGCACUU` has a log2 enrichment of -0.885.
`CAAGUCCUGUGCUACACAUCGUAUGUACCGAAUCGGGUUUUGGGUUUUGGUUUUGGAAAGUAUUAUGUUACGCCGUUCGGAUCUGCACUU` has a log2 enrichment of -1.6.
With `UAACUUUAGAGGAGGAUCUGAUGGAUAUGGCAGUGGACAUGGAUUUGGGGAUGGCUAUAAUGGGUAUGGAGGAGGACCUGGAGGUGGCAA` the log2 enrichment was -1.08.
`CACAGACAACACGCACCCACACAGACACAGAGGGAAGGAGUUGGGAUGGGGACAGGGUGCACAGCAGGGCGGGGUAGGACCCCAGCCCCU` has a log2 enrichment of -0.717.
For `AAGUCCUGUGCUACACAUCGUAUGUACCGAAUCGGGAAAGGGUUUUUUUGGGUGGGAAAGUAUUAUGUUACGCCGUUCGGAUCUGCACUU`, the log2 enrichment was 0.605.
For `UUCUUUGCCCAACGGGGCCGUGGAUACCUGCCUUUUAAUUCUUUUUUAUUCGCCCAUCGGGGCCGCGGAUACCUGCUUUUUAUUUUUUUU`, the log2 enrichment was -0.359.
`ACCAUGCAGGUGGGCAUCUUUGAGAAGUGGGGCAAGGGGGGGAUAGGGAGGGGGGUAACACUUUGGGAACAGGUGGUCCCAGGUCGUUUC` has a log2 enrichment of -1.12.
`CACAGACAACACGCACCCACACAGACACAGAGGGAAGGGGUUGGGAUGGGGACAGGGUGCACAGGAGGGCGGGGUAGGACCCCAGCCCCU` gave a log2 enrichment of 0.00986.
`AGUCCUGUGCUACACAUCGUAUGUACCGAAUCGGAAAAGGGGAAAAGGGGAAAAGGGGAAAGUAUUAUGUUACGCCGUUCGGAUCUGCAC` gave a log2 enrichment of -0.182.
For `CCUGUGCUACACAUCGUAUGUACCGAAUCGGGCCCCCCGGCCCCCCGGGGCCCCCCGGGGAAAGUAUUAUGUUACGCCGUUCGGAUCUGC`, the log2 enrichment was -1.47.
For `CUGUGCUACACAUCGUAUGUACCGAAUCAAACCCCCCCAAACCCCCCCAAACCCCCCCAAAAAAGUAUUAUGUUACGCCGUUCGGAUCUG`, the log2 enrichment was -0.876.

Sample 2
Target: Histone acetyltransferase KAT6A, both winged helices, GST fusion (KAT6A, Homo sapiens, UniProt Q92794, residues 1-181)
Technique: protein binding microarray
Molecule type: double-stranded DNA, one strand shown
Medium: in vitro
Tested at: not given
Setting: 8-mer, flanks averaged, mean of 2 arrays, mostly near background
Reference: not given
Direction: higher = stronger binding
Construct (chain): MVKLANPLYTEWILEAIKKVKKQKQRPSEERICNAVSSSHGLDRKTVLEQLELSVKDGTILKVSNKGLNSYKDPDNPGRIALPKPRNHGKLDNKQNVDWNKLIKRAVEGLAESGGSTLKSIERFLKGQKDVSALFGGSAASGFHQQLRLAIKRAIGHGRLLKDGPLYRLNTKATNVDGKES
The E-score of `ACTCGACT` is reported as -0.304.
`ATGGTCAA` gave an E-score of -0.163.
With `CCACCATC` the E-score was -0.0379.
`CCCTTTCG` has an E-score of -0.0194.
`GGGTGCGA` gave an E-score of 0.057.
The E-score of `ACACAGAA` is reported as -0.125.
`AGTGACAT` has an E-score of -0.0693.
For `GAATGGGC`, the E-score was -0.101.
With `ACTAAGGA` the E-score was -0.0449.
`GCTTTCAC` has an E-score of -0.0596.
`ACGAAGGA` gave an E-score of -0.0797.
`AACACAAA` has an E-score of -0.208.
For `CGTAATCA`, the E-score was -0.0435.
For `ATACTCGC`, the E-score was 0.136.
`ACGTTAAT` has an E-score of 0.0185.
`TCGTTGAA` has an E-score of -0.169.
`GAGGGGCA` has an E-score of -0.189.
`CCCTGTCG` gave an E-score of 0.00358.
The E-score of `CCGCTTAA` is reported as 0.202.
`ATGTCAAT` gave an E-score of -0.0496.
For `ACACTGAC`, the E-score was -0.111.
For `CAAGCCGG`, the E-score was 0.216.
`AGCTGGGA` gave an E-score of -0.259.
For `CTCATTAA`, the E-score was -0.073.
With `GGGTCAGA` the E-score was -0.0406.

Sample 3
Target: RNA binding protein fox-1 homolog 2, RRM domain, GST-SBP tag (RBFOX2, Homo sapiens, UniProt O43251-10, residues 100-194)
Technique: RNA Bind-n-Seq
Molecule type: RNA
Medium: in vitro
Tested at: 365 nM
Setting: natural RNA segment, single round, ends assumed
Reference: no-protein control
Direction: higher = stronger binding
Constant ends, left off below: GGGAGUUCUACAGUCCGACGAUC … UGGAAUUCUCGGGUGCCAA
Construct (chain): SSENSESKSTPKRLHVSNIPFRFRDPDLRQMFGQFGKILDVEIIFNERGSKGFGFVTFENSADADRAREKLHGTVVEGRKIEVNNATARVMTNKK
`GGUCAUUUCCUCCCAGACACUGUUUUGCCCCAGCGCCCUUCGGAAUCACAGUCCCGCCGUGUCUUAGAAACUGCUUUGGCCGAUGCAAACAGCCCCCUACCCGUCCCCCU`: “RBNS enrichment (R)” 0.41.
Under “RBNS enrichment (R)”, `CAUUCAUAUACCAUUUUAUGAGUUCUGUAUAAUUUUUUGUGGUUUUUGUUUUGUUGAGUUAAAGUAUAUUAUUGUGAGAUUUAUUUAAUAGGACUUCCUUUGAAAGCUGU` is recorded as 1.2.
For `UCCUACCUUGCUUUCUAGAAAGGCUUUUGCUCCAUACUUCCCUUAAUCUCAGAAUGGAUGGAAAAGAGGAAGACAUUAGGGACUGUCAGGUCCAUUUAAAGAGGAAAUUA`, “RBNS enrichment (R)” read 0.972.
`UGUGGUCUGCCCACACCUGUCUACUCUGGCAUGUGUCAGGAAAAGGAGCGUCAAAGGUGACCUUUACCCUCACAGCGUACCAAUAAACCACGGUGCCAGCUUUGGAGAUG`: “RBNS enrichment (R)” 0.31.
For `AAUGUUAUUAUUGGCUUGCACUUUGUGAGUAUUCUAUGUAAAAAUAUAUAUGUAUAUAAAAUAUAUAUUGCAUAGGACAGACUUAGGAGUUUUGUUUAGAGCAGUUAACA`, “RBNS enrichment (R)” read 4.2.
Under “RBNS enrichment (R)”, `UAUAAAGAUGUUCAUAUUUUAGGAAUAUUUGCAUAACUCAAGUGGAUAAAACAUUAAAAUGAAAACCAGUUUUUCAGGAUGCAUAGGUAAGGAAUGAUUGCUAUAUUAUA` is recorded as 0.954.
Under “RBNS enrichment (R)”, `UUGGGGUUGUGGAGAUGGACCCGUGACCUCGUGGAGGCCGUGUGGGGGCAGCAGCCUGGCCUGUGCCAUGGUGGGUGUCCUGGGGCCUGUGCGGAGGGAGCCACCUCACC` is recorded as 0.259.
Under “RBNS enrichment (R)”, `AAAGCCAGCAGAAAAGAAAUGUGCCUGCUAGACACUCAGAGGAACCAGUGAUGGAGAGCCCACCCAAGUCCGACGUCCUGAGACAAUGUCAAACCAUGAUGUUGUCAUUG` is recorded as 0.321.
`AGGGUUAGGCAAAUGGGGGACCUUCCUGUGUGCUCUUGGGGGUCUGCUCAGCAUCUGGAAAUUUGGGUGUGCGAUUUUCCCUGAACACAUUGCAUACCAGUGUAAAAAGA`: “RBNS enrichment (R)” 1.13.
`AUUACCAAAAGAAAAGGUAAGGUGGCAACCUUAUUUUUAAUAGUUUGAAAUGAUGAUAAUCCUAAUUAUAUAAAAAUAUAUAUAUAAACACACAUAUAUAUAGUGAUUUC` — result for “RBNS enrichment (R)”: 1.24.
For `GGGUCAGGUAAAGCAUGAGAGAGACUCUCAGCGCCGCCGCUGCCGCUGCCAGGGUGAUCAUUCAUCAGUUUCGGCCACUAGAGACAGAAAACUACACUGCUAAGCCCUGG`, “RBNS enrichment (R)” read 2.27.
`GAAUAUUACUUUAACAUUCAGAUGGAUCAUAACUAAUUCGACUAGGGUGUUUUUCCUGAGUAGGAGUUAAGUUUGGAACUGGUGGUCUUGAAUGUUAAACAUGGAGUGUG`: “RBNS enrichment (R)” 0.488.

Sample 4
Target: Prothrombin, mature alpha-thrombin (F2, Homo sapiens, UniProt P00734)
Technique: aptamer microarray, sandwich
Molecule type: DNA with 2'F-ANA
Medium: in vitro
Tested at: 200 nM
Setting: whole 15-mer aptamer, many near background
Added: Cy3 exosite-II aptamer, 400 nM
Direction: higher = stronger binding
Strand: GGTTGGTGTGGTTGG
For `2'F-ANA at 1 5 6 7 8 9 12 13 14 15`, “mean fluorescence intensity” read 46.1 a.u.
Under “mean fluorescence intensity”, `2'F-ANA at 2 3 4 7 8 10 13 14 15` is recorded as 190 a.u.
`2'F-ANA at 2 4 12 13 14` — result for “mean fluorescence intensity”: 130 a.u.
For `2'F-ANA at 3 6 7 11 14`, “mean fluorescence intensity” read 526 a.u.
`2'F-ANA at 1 2 3 4 6 8 9 10 15` — result for “mean fluorescence intensity”: 69 a.u.
`2'F-ANA at 4 6 7 8 11 15`: “mean fluorescence intensity” 283 a.u.
`2'F-ANA at 3 8 10 12 13` — result for “mean fluorescence intensity”: 635 a.u.
For `2'F-ANA at 2 5 7 9 12 13 15`, “mean fluorescence intensity” read 91.7 a.u.
`2'F-ANA at 2 3 5 9 10 11 14 15` — result for “mean fluorescence intensity”: 69.3 a.u.
Under “mean fluorescence intensity”, `2'F-ANA at 1 3 4 6 8 9 11 13 14 15` is recorded as 61.2 a.u.
Under “mean fluorescence intensity”, `2'F-ANA at 1 2 4 7 9 10 12` is recorded as 64.2 a.u.
For `2'F-ANA at 6 10 12 13 15`, “mean fluorescence intensity” read 186 a.u.
For `2'F-ANA at 1 2 4 9 10 12 13`, “mean fluorescence intensity” read 51.9 a.u.
Under “mean fluorescence intensity”, `2'F-ANA at 1 4 6 7 8 14` is recorded as 70.8 a.u.
For `2'F-ANA at 2 3 4 7 9 11 12 13 15`, “mean fluorescence intensity” read 521 a.u.
`2'F-ANA at 1 2 6 7 8 12` — result for “mean fluorescence intensity”: 343 a.u.
`2'F-ANA at 1 3 6 8 9 11 12` — result for “mean fluorescence intensity”: 447 a.u.
`2'F-ANA at 1 4 6 7 8 10 12 13` — result for “mean fluorescence intensity”: 51.7 a.u.
`2'F-ANA at 4 8 10 12 13 14 15`: “mean fluorescence intensity” 59.7 a.u.
For `2'F-ANA at 3 5 6 7 8 9 12 13 14`, “mean fluorescence intensity” read 58.1 a.u.
`2'F-ANA at 2 3 4 5 6 10 11 12 13`: “mean fluorescence intensity” 48.5 a.u.
For `2'F-ANA at 8 11 12 13`, “mean fluorescence intensity” read 713 a.u.
`2'F-ANA at 1 2 3 6 7 9 11 12 14 15`: “mean fluorescence intensity” 72.8 a.u.
For `2'F-ANA at 1 2 3 4 7 8 13 14 15`, “mean fluorescence intensity” read 74.7 a.u.
For `2'F-ANA at 2 4 6 8 9 11 12 14`, “mean fluorescence intensity” read 127 a.u.

For quick reference, copied from above (sample 1):
With `UAACUUUAGAGGAGGAUCUGAUGGAUAUGGCAGUGGACAUGGAUUUGGGGAUGGCUAUAAUGGGUAUGGAGGAGGACCUGGAGGUGGCAA` the log2 enrichment was -1.08.
`UGGAAGUGGCGCUGGCGCCUGAAGAGUUGGAGCUGGAUCCUAUGGCCAUGACCCAGAAGUAUGAGGAGCAUGUGCGGGAGCAGCAGGCUC` gave a log2 enrichment of -0.254.
For `AAGUCCUGUGCUACACAUCGUAUGUACCGAAUCGGGAAAGGGUUUUUUUGGGUGGGAAAGUAUUAUGUUACGCCGUUCGGAUCUGCACUU`, the log2 enrichment was 0.605.
`CACAGACAACACGCACCCACACAGACACAGAGGGAAGGGGUUGGGAUGGGGACAGGGUGCACAGGAGGGCGGGGUAGGACCCCAGCCCCU` gave a log2 enrichment of 0.00986.
For `CCUGUGCUACACAUCGUAUGUACCGAAUCGGGCCCCCCGGCCCCCCGGGGCCCCCCGGGGAAAGUAUUAUGUUACGCCGUUCGGAUCUGC`, the log2 enrichment was -1.47.
For `UUCUUUGCCCAACGGGGCCGUGGAUACCUGCCUUUUAAUUCUUUUUUAUUCGCCCAUCGGGGCCGCGGAUACCUGCUUUUUAUUUUUUUU`, the log2 enrichment was -0.359.
